{"data": "Published values pooled from the literature", "note": "Numbered parts are unrelated; each lists some results of a single study.", "UniProt Q96LR5, sequence (whole entry, looked up)": "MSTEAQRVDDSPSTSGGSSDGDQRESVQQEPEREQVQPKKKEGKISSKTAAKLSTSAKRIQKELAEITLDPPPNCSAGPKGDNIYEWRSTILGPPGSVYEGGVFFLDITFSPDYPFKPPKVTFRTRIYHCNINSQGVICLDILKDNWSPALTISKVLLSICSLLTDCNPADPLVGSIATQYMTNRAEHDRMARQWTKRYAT", "UniProt P51965, sequence (whole entry, looked up)": "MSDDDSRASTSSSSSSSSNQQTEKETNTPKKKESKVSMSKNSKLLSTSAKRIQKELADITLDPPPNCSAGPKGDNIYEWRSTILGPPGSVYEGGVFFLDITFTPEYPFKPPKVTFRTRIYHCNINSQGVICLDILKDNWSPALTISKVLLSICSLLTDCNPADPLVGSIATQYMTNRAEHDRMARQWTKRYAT", "UniProt P49427, sequence (whole entry, looked up)": "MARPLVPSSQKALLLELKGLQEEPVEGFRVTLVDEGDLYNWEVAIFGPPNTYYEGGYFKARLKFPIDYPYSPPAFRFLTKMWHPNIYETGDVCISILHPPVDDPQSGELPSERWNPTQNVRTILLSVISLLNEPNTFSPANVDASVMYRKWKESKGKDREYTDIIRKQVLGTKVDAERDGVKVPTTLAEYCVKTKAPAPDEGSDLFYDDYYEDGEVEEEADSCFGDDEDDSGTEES", "UniProt Q15819, sequence (whole entry, looked up)": "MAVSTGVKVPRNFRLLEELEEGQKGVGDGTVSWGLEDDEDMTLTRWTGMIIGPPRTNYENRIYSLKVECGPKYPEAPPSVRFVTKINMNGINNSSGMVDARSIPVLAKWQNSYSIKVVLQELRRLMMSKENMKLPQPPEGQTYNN", "UniProt Q5VVX9, sequence (whole entry, looked up)": "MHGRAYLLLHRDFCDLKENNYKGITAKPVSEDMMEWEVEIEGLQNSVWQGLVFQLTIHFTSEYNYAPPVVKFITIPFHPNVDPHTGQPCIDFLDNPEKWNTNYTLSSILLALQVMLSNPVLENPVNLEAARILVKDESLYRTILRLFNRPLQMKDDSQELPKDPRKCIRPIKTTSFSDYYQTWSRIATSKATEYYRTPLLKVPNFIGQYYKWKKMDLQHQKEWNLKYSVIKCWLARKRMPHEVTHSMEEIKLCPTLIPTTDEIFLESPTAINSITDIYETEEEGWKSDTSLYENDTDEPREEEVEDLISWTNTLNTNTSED"}
{"data": "Block 1", "target": "Interferon regulatory factor 3, full length, phosphomimetic (IRF3, Homo sapiens, UniProt Q14653, residues 1-427, S386D/S396D/S398D/S402D/T404D/S405D)", "technique": "protein-binding microarray", "molecule type": "double-stranded DNA, one strand shown", "sample": "in vitro", "tested at": "2540 nM top", "setting": "60-bp whole probe", "together with": "salmon DNA 0.4 mg/ml", "baseline": "random background probes", "reading": "higher = stronger binding", "all sequences stand within": "GCCTAGCAC … GTCTTGATTCGCTTGACGCTGCTG", "UniProt Q14653, sequence (whole entry, unmodified, looked up)": "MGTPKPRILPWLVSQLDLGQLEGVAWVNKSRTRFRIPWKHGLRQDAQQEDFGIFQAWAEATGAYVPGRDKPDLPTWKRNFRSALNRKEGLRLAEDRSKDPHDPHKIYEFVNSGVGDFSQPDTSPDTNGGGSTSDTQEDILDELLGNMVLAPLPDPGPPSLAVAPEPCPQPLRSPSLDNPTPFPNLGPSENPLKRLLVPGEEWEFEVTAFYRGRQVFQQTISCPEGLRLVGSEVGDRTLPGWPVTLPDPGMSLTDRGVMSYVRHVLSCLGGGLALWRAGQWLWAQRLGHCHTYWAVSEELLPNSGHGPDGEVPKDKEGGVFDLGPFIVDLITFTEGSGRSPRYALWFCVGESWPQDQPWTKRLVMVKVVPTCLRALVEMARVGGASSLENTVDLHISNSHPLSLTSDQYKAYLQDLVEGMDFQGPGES"}
{"Sequence": "AAGATTCTAGCCTATAGAAGCGTGCTA", "fitted relative affinity [z-score]": -0.322}
{"Sequence": "GACGATCGCAGTCTCGAGACGTGCTAG", "fitted relative affinity [z-score]": 0.108}
{"Sequence": "GACGGTATCAGTATCGGGACGTGCTAG", "fitted relative affinity [z-score]": 3.86}
{"Sequence": "GACGGTCTCGGGTTTCGGGACGTGCTA", "fitted relative affinity [z-score]": 1.37}
{"Sequence": "GACGGTATCGGTATTGGGACGTGCTAG", "fitted relative affinity [z-score]": 3.96}
{"Sequence": "TATTTTATATGCTATGTACTGGTGCTA", "fitted relative affinity [z-score]": 0.432}
{"Sequence": "TCAGCTACCTCTCTTAGACTGTGCTAG", "fitted relative affinity [z-score]": -0.0599}
{"Sequence": "GACGGTATCCGGACTGGGGACGTGCTA", "fitted relative affinity [z-score]": 2.37}
{"data": "Block 2", "Sequence": "PEELAVNNDDCAICWDSMQAARKLPCGHLFHNSCLRSWLEQDTSCPTCRMSLNIADNNR (AMFR RING domain (UniProt Q9UKV5))", "technique": "yeast two-hybrid", "sample": "yeast", "setting": "mostly zero background", "baseline": "not given", "reading": "higher = stronger interaction"}
{"target": "UBE2E2 UBC core domain (UniProt Q96LR5)", "lacZ reporter activity": 0}
{"target": "UBE2U UBC core domain (UniProt Q5VVX9)", "lacZ reporter activity": 0}
{"target": "UBE2V2 UBC core domain (UniProt Q15819)", "lacZ reporter activity": 0}
{"target": "UBE2E1 UBC core domain (UniProt P51965)", "lacZ reporter activity": 0}
{"target": "CDC34 UBC core domain (UniProt P49427)", "lacZ reporter activity": 0}
{"data": "Block 3", "target": "Max dimerization protein 1, bHLH-zipper, MAX partner unstated (MXD1, Homo sapiens, UniProt Q05195, residues 56-136)", "technique": "protein-binding microarray", "molecule type": "double-stranded DNA, one strand shown", "sample": "in vitro", "tested at": "not given", "setting": "k-mer, scored over probes, only values ≥0.25", "reading": "higher = stronger binding", "Target sequence (chain)": "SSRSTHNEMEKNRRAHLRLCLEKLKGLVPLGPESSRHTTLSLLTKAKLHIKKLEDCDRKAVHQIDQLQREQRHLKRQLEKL"}
{"Sequence": "CACGCGGG", "E-score": 0.442}
{"Sequence": "ATGCCCCC", "E-score": 0.307}
{"Sequence": "CATGCTCG", "E-score": 0.337}
{"Sequence": "ACACACGT", "E-score": 0.375}
{"Sequence": "GCATGCGC", "E-score": 0.401}
{"Sequence": "CCATGCCA", "E-score": 0.325}
{"Sequence": "CGTGCATA", "E-score": 0.329}
{"Sequence": "ACGTGGAT", "E-score": 0.402}
{"data": "Single results of other studies"}
{"SMILES": "CN(C)c1nc2sc(C(=O)NCc3cc4ccccc4[nH]3)cc2s1", "species": "mouse", "sample": "microsomes or S9", "tested at": "2 µM", "time": "0.5 h", "endpoint": "remaining compound", "value": "3.72%"}
